# Published values from different studies.
# Numbered parts are unrelated; each lists some results of a single study. Positions count from the first letter of the parent shown.

# Set 1
# Target: Ras GTPase-activating protein-binding protein 1, RRM domain (G3BP1, Homo sapiens, UniProt Q13283)
# Chain of UniProt Q13283 (whole entry, looked up): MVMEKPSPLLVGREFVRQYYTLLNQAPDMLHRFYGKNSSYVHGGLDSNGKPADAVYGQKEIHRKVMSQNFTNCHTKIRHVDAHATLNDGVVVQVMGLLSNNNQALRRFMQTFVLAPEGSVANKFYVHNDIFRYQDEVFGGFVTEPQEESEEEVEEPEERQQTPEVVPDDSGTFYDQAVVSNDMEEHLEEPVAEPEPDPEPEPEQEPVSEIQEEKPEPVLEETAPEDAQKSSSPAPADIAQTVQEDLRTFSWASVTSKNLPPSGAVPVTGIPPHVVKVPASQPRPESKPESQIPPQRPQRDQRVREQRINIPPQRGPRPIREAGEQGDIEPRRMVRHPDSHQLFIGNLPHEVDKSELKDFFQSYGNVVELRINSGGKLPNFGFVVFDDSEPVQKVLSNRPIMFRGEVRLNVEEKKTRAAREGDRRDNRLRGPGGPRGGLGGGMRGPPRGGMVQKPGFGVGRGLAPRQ
# Technique: RNA Bind-n-Seq
# Molecule type: RNA
# Matrix: in vitro
# Concentration: 1 µM
# Setting: whole 134-nt RNA, ends assumed
# With: 150 mM KCl
# Relative to: input library
# Direction: higher = stronger binding
# Constant ends, left off below: GGGAGUUCUACAGUCCGACGAUC … UGGAAUUCUCGGGUGUCAAGG
Oligonucleotide,log2 enrichment
ACCAUGCAGGUGGGCAUCUUUGGGAAGUGGGGCAAGGGGGGGAUAGGGAGGGGGGUAACACUUUGGGAACAGGUGGUCGCAGGUCGUUUC,0.94
ACCAGGCAGGUGGGCAUCUUUGGGAAGUGGGGCAAGGGGGGGAUAGGGAGGGGGGUAACACUUUGGGAACAGGUGGUCCCAGGUCGUUUC,-0.704
CAAGUCCUGUGCUACACAUCGUAUGUACCGAAUCGGGAAAGGGUUUUUGGGUGGGAAAGUAUUAUGUUACGCCGUUCGGAUCUGCACUUC,0.675
GUCCUGUGCUACACAUCGUAUGUACCGAAUCGGGGUUUUUGGGUUUUUGGUUUUUGGGGAAAGUAUUAUGUUACGCCGUUCGGAUCUGCA,-0.112
AGUCCUGUGCUACACAUCGUAUGUACCGAAUCGGGGAAAAAGGAAAAAGGAAAAAGGGAAAGUAUUAUGUUACGCCGUUCGGAUCUGCAC,0.0127
UGGCCCUGGUGGCAUGCGGGGAGGAAGAGGUGGCCUCAUGGAUCGUGGUGGUCCCGGUGGAAUGUUAAGAGGUGGCCGUGGUGGAGACAG,2.18
AAGUCCUGUGCUACACAUCGUAUGUACCGAAUCAAAUUUUUAAACCCAAAUUUAAAAAAGUAUUAUGUUACGCCGUUCGGAUCUGCACUU,-0.282
UGCGUGCUUGUGUCCUGGAGCUGGAAGAGCGGCUGAGCACGCAGGAGGGCUUGGUGCAAGAGCUUCAGAAAAAACAGGUGGAAUUGCAGG,-0.501
UAGGAAAACCGUCUUCAGAUACAGUCCCUAAGCCCAAGAGAGCCCCAAAACAGAAGAAAGUAGUAGAGGCUGUAAACUCUGACUCGGAUU,-0.0464
UCAAGUCCUGUGCUACACAUCGUAUGUACCGAAUCGGGUUUGGGAGGGUUUGGGAAAGUAUUAUGUUACGCCGUUCGGAUCUGCACUUCC,0.574
CACAGACAACACGCACCCAAAAAGACACAGAGGGAAGGGGUUGGGAUGGGGACAGGGUGCACAGCAGGGCGGGGUAGGACCCCAGCCCCU,-0.171
UCCUGUGCUACACAUCGUAUGUACCGAAUCGGGUUUUUUUGGGUUUGGGAAAAAAAGGGAAAGUAUUAUGUUACGCCGUUCGGAUCUGCA,-0.0749
AGUCCUGUGCUACACAUCGUAUGUACCGAAUCGGGGCCCCGGGGCCCCGGGGCCCCGGAAAGUAUUAUGUUACGCCGUUCGGAUCUGCAC,-2.02
UGGCCCUGGUGGCAUGCGGGGAGGAAGAGGUGGCCUCAUGGAUCGUGGUGGUCCCGGUGGAAUGUUCAGAGGUGGCCGUGGUGGAGAGAG,1.59

# Set 2
# Target: ABI1, truncated, D143A, DHFR fusion (Arabidopsis thaliana)
# Technique: DHFR PCA, deep sequencing
# Matrix: yeast
# Setting: methotrexate growth selection, single substitutions
# With: (+)-ABA 0.032 µM
# Relative to: wild-type fitted maximum
# Direction: higher = stronger binding
# Starting sequence: PYL1, truncated, DHFR fusion (Arabidopsis thaliana); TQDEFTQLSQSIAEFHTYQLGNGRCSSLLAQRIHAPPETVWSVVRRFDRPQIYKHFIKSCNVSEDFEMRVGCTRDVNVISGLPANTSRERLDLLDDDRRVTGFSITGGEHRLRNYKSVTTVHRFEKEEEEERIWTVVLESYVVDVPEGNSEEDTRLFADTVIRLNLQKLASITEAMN
Change,relative binding score
I162Y,1.07%
T101C,22.8%
F66K,1.15%
G108Y,-9.81%
G23W,0.879%
P146Y,-0.465%
S63H,12.6%
E129P,50%
G102F,1.72%
G108S,0.193%

# Set 3
# Target: Histone acetyltransferase KAT6A, winged helix 2, GST fusion (KAT6A, Homo sapiens, UniProt Q92794, residues 85-181)
# Technique: protein binding microarray
# Molecule type: double-stranded DNA, one strand shown
# Matrix: in vitro
# Concentration: not given
# Setting: 8-mer, flanks averaged, mean of 2 arrays, mostly near background
# Relative to: not given
# Direction: higher = stronger binding
# Residues (chain): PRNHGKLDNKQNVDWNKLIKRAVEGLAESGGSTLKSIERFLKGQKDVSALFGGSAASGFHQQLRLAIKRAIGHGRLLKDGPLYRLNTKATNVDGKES
Oligonucleotide,E-score
CAAGCTAA,-0.00309
TAATTTCA,0.116
CGATTAGC,-0.0632
GAACCTCC,0.138
ATCGAGCG,0.0684
CAGGTTCC,-0.0985
AACCTCGT,-0.136
AGCGTTGG,-0.0849
AGCTGAGG,-0.0657
GTGCCAAA,0.131
CTTGCTCA,0.0511
GCACACGC,0.104
GACTAGGC,0.0025
CGTATTAA,0.0119
ACAAGCGC,0.0807
GTAAGCGA,0.0581
AGTAATTG,-0.0193
TCACGGAA,-0.061

# Set 4
# Target: RING finger protein unkempt homolog, zinc fingers 1-6, SBP tag (UNK, Homo sapiens, UniProt Q9C0B0, residues 30-357)
# Chain of UniProt Q9C0B0 (30-357, looked up): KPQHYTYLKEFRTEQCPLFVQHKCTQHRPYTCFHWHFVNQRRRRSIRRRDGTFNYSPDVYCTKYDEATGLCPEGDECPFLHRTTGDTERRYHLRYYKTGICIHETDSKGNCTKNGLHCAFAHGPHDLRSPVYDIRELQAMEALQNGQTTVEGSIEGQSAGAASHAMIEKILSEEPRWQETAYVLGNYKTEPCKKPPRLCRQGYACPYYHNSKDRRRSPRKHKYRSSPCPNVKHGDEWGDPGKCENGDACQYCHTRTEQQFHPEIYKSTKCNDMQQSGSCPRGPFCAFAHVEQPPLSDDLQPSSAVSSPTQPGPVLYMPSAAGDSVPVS
# Technique: RNA Bind-n-Seq
# Molecule type: RNA
# Matrix: in vitro
# Concentration: 100 nM
# Setting: RNA with constant flanks, vertebrate orthologous sites, ends assumed
# Relative to: input RNA pool
# Direction: higher = stronger binding
# Constant ends, left off below: GGGAGUUCUACAGUCCGACGAUC … CAACAGAGGAUUGAGCAUCA
Oligonucleotide,bound/input enrichment
UAAAAUCUGGAUCUUGGAACCAAACCAAGGGGUUUGGAAGUAAAGAAAUUUGUAAAGUCCCAGCCCACGCAGCUGCACAGCACACCACCGCUGGCUGCUGUGUUCAGGUGUUUAUGGCAG,0.121 ratio
AAAUUUACUUCAUGCCCUGGACUCCUUAUCGUACAGACACGUUAAUAGAGUACUCUUCACUGGAUGACUUCCAGAAUGGGCGUCAAACCACCACAUACAAGCUCCCCCACCGAGUGGACG,0.632 ratio
GUCUGUCUCGCAGAGCCGGGGAGCGUCCGAGUGGCCGGGGCCCUUACUUUGUUUCUUUUCCUCGGGGUGGGGGUGGGUCGUGGCGCCCACCGUGCUGGGGCGUCAGCGUGGAUGGUGCGU,0.725 ratio
CAACUCCAUGGUGGAGGGCUCAGAACUCAAAAAGGUCCGCUCCAACUCCAGAAUUUACCAUCGCUAUUUCCUGCUGGACGCCGACAUGCAAAGCCUGAGGUGGGAGCCAUCUAAGAAGGA,0.227 ratio
ACUGUUGUUAAGCACUGUGUUCCAGACUGUGUCUGACUUAGUGUAACCUAGGAGAUUUUAUAGUUUUAUUUUAAUGAACUCCUGAUUGACGCAGAGCAGUGGGAGAAUGGUCCCUUUUAC,2.46 ratio
GUGGUUUUUAAACGUCAAUUGUGCAUAGCUUUGUGCUAAAGAUUGUGUUAGACUUAAAAAUUCAUGAAUUGGUUCUUUGUUGUGUUUUCAUUAUUGAAAAUAAAUAAAACUUUGAAUCUU,0.272 ratio
CAUCUCUCAUUUUAUAUGUCCAAAAAUGGCUUUGAAUUUUAAGCAGUUACUAGUUUUAAUUAGCUCUGCCCUCAUAAAGUGUUAUUAUAAUUCACCGUAACCAGUUAUCUGUCUGAAUUA,0.821 ratio
UAUUCAUUUGAUUGAAUUUAUUUAGGAAAGAAAUUAUUACUGUUUAUGUUUUCUAGCUUAUCAUACUUUUCAUCCGUUUUGCAAUUAAUAAUUUCAUUUGACUUCUUAAUAUAUCAGAGC,0.483 ratio
AGGGAGAAGAGCUCACAAACUCAAAGGAAAACUAUUAAAGAGUUUCUAAUAGUUAAAAGCUAGGAAAGAUUAGGACUUUACAAAUGAGUAAUUAAAAAUAAAAAGUAAAAGGAUAUGGAA,0.786 ratio
CUAUUGUUAAGCACUGUGUUCCAGACCGUGUCUGACUUUAGUGUAACCUAGGAGAUUUUAUAGUUUUAUUUUAAUGAAAUCCUGCUUGACGCAGAACAGCGGGGAGAGCAGUGUCUUCUA,2.04 ratio
GAGCUAAAGGAGUUAGCAUCUUUAUUUUUGUAUCAAAGAUAAAGGUUAUUUUGAAAUUAUUAGAAUUUUCACACAACUCUGAAAUCUGUUGCUUUUGUAAACAAAUUGUUUGAUCUAGGG,0.381 ratio

# Set 5
# Target: CCND3, cyclin fold, Cln2 fusion (human)
# Technique: yeast growth competition, sequencing
# Matrix: yeast
# Setting: weak parent motif
# Relative to: not given
# Direction: higher = stronger binding
# Starting sequence: USP37 docking peptide (human); PSAKRSLGFLPQP; partner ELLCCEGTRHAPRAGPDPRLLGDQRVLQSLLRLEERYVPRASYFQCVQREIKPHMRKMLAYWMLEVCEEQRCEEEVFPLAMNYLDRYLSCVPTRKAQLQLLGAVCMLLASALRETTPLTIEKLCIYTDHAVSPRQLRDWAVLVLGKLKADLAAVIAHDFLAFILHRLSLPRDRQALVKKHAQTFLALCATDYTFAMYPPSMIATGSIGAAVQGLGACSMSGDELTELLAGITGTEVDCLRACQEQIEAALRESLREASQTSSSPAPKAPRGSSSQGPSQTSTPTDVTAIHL
Change,normalised enrichment score
PSAKRSLAFLPQP [G8A],0.144
PSAKRSLGFLPAP [Q12A],0.529
PSAKRSLGFLPQA [P13A],0.305
PAAKRSLGFLPQP [S2A],0.304
PSAARSLGFLPQP [K4A],0.567
PSAKRSLGFLAQP [P11A],0.0679

# Other studies, line by line
Molecule,target,test,test system,conditions,scale,endpoint,value
"PhoQ, residues 284 288 289 292 302 303 AMDMFI","PhoP, residues 12 14 15 18 19 NMSSL (Escherichia coli, UniProt P23836)","Sort-seq, measured: YFP reporter",E. coli,"PhoQ-PhoP variant library, with: 10 µM Mg2+","relative to: high Mg2+ state, higher = stronger signaling",fold induction,2.68
